Experimental data collected from several papers.
Compare with care: the assays were run in different laboratories. Converted amounts (≈) assume the structure as drawn.

Structure (SMILES)	tested on	test	system	setting	scale	endpoint	value
CCCCCn1cc(C(=O)C2C(C)(C)C2(C)C)c2ccccc21	–	Δ9-THC discrimination	C57BL/6J male mice	ip	–	dose for full substitution	5.6 mg/kg
O=[N+]([O-])c1cc2c(ccc3cc(Br)ccc32)o1	Mycobacterium bovis BCG	–	1173 P2	–	–	MIC90	0.5 µg/mL (≈ 1.71 µM)
CC[C@H](C)[C@@H]1NC(=O)[C@@H]2CCCN2C(=O)[C@H](CC(C)C)NC(=O)[C@H](CC(C)C)NC(=O)CNC(=O)[C@@H](NC(=O)[C@@H](NC(=O)[C@H](CC(=O)O)NC(=O)CNC(=O)[C@@H](NC(=O)[C@H](C)NC(=O)CNC(=O)[C@H](CCCCN)NC(=O)[C@H](CC(C)C)NC(=O)[C@H](CC(C)C)NC(=O)[C@H](CCCCN)NC(=O)CNC(=O)[C@@H](NC(=O)[C@@H](N)CC(C)C)C(C)C)C(C)C)C(C)C)CSSC[C@@H](C(=O)O)NC1=O	–	RNA-seq, measured: Siglece mRNA	mouse traumatic brain injury, frontal cortex and hippocampus	dose not given	relative to: TBI plus compound vs TBI	log2 fold change	-2.4
CS(=O)(=O)CCCn1c(Cn2c(=O)n(CC(F)(F)F)c3ccncc32)cc2cc(Cl)ccc21	respiratory syncytial virus	RT-qPCR	hospitalized infants 1-24 months, nasal swab	oral, 6, 4.5 or 3 mg/kg daily, day 14, mid dose by age cohort	relative to: placebo	LS mean difference vs placebo	-0.64 log10 copies/mL
N=C(N)c1ccc(OCCC(CCOc2ccc(C(=N)N)cc2)c2ccccc2)cc1 (stereo not drawn)	Escherichia coli	–	BW25113	concentration not given, lowest-FICI combination, added: erythromycin	–	MIC in combination	12.5 µg/mL
O=C(Cc1ccc(Br)cc1)N[C@H]1CCOC1=O	ExpR1 (Pectobacterium carotovorum)	cellulase activity, antagonist	Pectobacterium carotovorum, single-ExpR1 strain	5 µM, 4 h, added: OHHL 5 µM	–	inhibition	71%
O=C1CCP(=S)(c2ccccc2)CC1	PC-3	ELISA	–	concentration not given, at IC50	relative to: untreated	IL-6 reduction	96.8%
COc1ccc(-n2nc(C(C)=O)s/c2=N\N=C(/C)c2ccc(NC(C)=O)cc2)cc1	MCF7	RT-PCR, measured: Bcl-2 mRNA	–	0.04 µM	relative to: untreated control	mRNA level	0.159 fold change
COc1cc(CCC[P+](c2ccccc2)(c2ccccc2)c2ccccc2)c(OC)c2c1OCO2.[I-]	BT-549	SRB	–	–	–	LC50	-4.45 log M
COCCC1=C(C(=O)OC)C(c2ccc(Cl)cc2)C2=C(CC(c3ccc(OC)c(OC)c3)CC2=O)N1 (single isomer, unassigned)	Plasmodium berghei	parasitaemia	KBG-173, mouse	oral, 50 mg/kg, day 3 post-infection, PEG400 vehicle, Thompson test	relative to: vehicle	inhibition	100%
COc1c(CCC[P+](c2ccccc2)(c2ccccc2)c2ccccc2)cc2c(c1OC)OCO2.[I-]	BT-549	SRB	–	–	–	TGI	-4.82 log M
CC[C@@H](NC(=O)CNC(=O)[C@@H](Cc1ccccc1)NC(=O)CNC(=O)[C@H](N)CCC(N)=O)C(=O)N[C@H](CC(=O)O)C(=O)N[C@H](CCC(=O)O)C(=O)N[C@H](CCSC)C(=O)N[C@H](CC(C)C)C(=O)N[C@H](CCC(N)=O)C(=O)NCC(=O)N[C@H](Cc1ccccc1)C(=O)N[C@H](C)C(=O)N[C@@H](C(=O)N[C@H](C)C(=O)N[C@@H](C(=O)N[C@H](CCCCN)C(=O)N[C@H](CCSC)C(=O)NCC(=O)N[C@H](C)C(=O)N[C@H](Cc1ccc(O)cc1)C(=O)N[C@H](CCCCN)C(=O)N[C@H](C)C(=O)N[C@H](Cc1c[nH]c2ccccc12)C(=O)O)C(C)C)C(C)C	hemagglutinin influenza A/California/07/2009 H1N1	–	–	–	–	IC50	36 µM
CSc1cccc(CC(=O)N[C@H]2CCOC2=O)c1	ExpR1 (Pectobacterium carotovorum)	cellulase activity, agonist	Pectobacterium carotovorum, single-ExpR1 strain	200 µM, 4 h	relative to: OHHL	activation	0%
CN1CCN(C2(CNC3CCN(c4cccc(-c5cc6cc(F)ccc6[nH]5)c4)CC3)CCC2)CC1	PC-3	–	–	–	–	CC50	6.3 µM
O=C(Cc1ccc(Cl)cc1)N[C@H]1CCOC1=O	ExpR1 (Pectobacterium carotovorum)	cellulase activity, agonist	Pectobacterium carotovorum, single-ExpR1 strain	200 µM, 4 h	relative to: OHHL	activation	5%
Nc1ncnc2c1ncn2[C@@H]1O[C@@H]2COP(=O)(O)O[C@H]3[C@@H](O)[C@H](n4cnc5c(=O)[nH]cnc54)O[C@@H]3COP(=O)(O)O[C@H]2[C@H]1O	HFF-1	RNA sequencing Reactome analysis, measured: Reactome R-HSA-68877 mitotic prometaphase	–	added: West Nile virus infection	relative to: West Nile virus infected cells, upregulated pathway	pathway fold enrichment	3.39
CC[C@H](C)[C@H](NC(=O)[C@H](C)NC(=O)[C@H](CCCCN)NC(=O)[C@H](CC(C)C)NC(=O)[C@H](C)NC(=O)[C@@H](NC(=O)[C@H](Cc1c[nH]cn1)NC(=O)[C@H](CC(C)C)NC(=O)[C@@H](NC(=O)[C@@H](NC(=O)[C@H](CCCCN)NC(=O)[C@H](C)NC(=O)[C@H](C)NC(=O)[C@H](CO)NC(=O)[C@H](CCCCN)NC(=O)[C@H](Cc1ccccc1)NC(=O)[C@@H](NC(=O)[C@H](CCCCN)NC(=O)[C@H](CC(C)C)NC(=O)[C@H](Cc1ccccc1)NC(=O)[C@H](CO)NC(=O)[C@H](CCCCN)NC(=O)[C@H](Cc1c[nH]c2ccccc12)NC(=O)[C@H](CCCCN)NC(C)=O)[C@@H](C)O)[C@@H](C)O)C(C)C)[C@@H](C)O)C(=O)N[C@@H](CO)C(=O)N[C@@H](CO)C(N)=O	Pseudomonas aeruginosa	–	IPM-R	81 strains	–	MIC50	8 µg/mL (≈ 2.73 µM)
CCCCC1(CCCC)CN(c2ccccc2)c2cc(SC)c(OCC(=O)N[C@@H](C(=O)NCC(=O)O)c3ccccc3)cc2S(=O)(=O)C1	–	measured: LDL cholesterol	human, serum	20 mg once daily, day 1	–	serum LDL-C	99.9 mg/dL
COc1ccc2c(ccc3oc([N+](=O)[O-])c(OC)c32)c1	Mycobacterium bovis BCG	–	1173 P2	–	–	MIC90	> 32 µg/mL
Cn1c(=O)ccc2ccc(F)c(CCNC[C@H]3CN(c4cnc5c(n4)NC(=O)CO5)C(=O)O3)c21	Haemophilus influenzae	–	–	–	–	MIC50	< 0.015 µg/mL
CN1CC[C@]23c4c5ccc(O)c4O[C@H]2[C@@H](OS(=O)(=O)O)C=C[C@H]3[C@H]1C5	–	hot water tail withdrawal test	STZ-diabetic Sprague-Dawley rats	dose not given	–	time to peak effect	30 to 45 min

Repeated from above:
Structure (SMILES)	tested on	test	system	setting	scale	endpoint	value
CCCCC1(CCCC)CN(c2ccccc2)c2cc(SC)c(OCC(=O)N[C@@H](C(=O)NCC(=O)O)c3ccccc3)cc2S(=O)(=O)C1	–	measured: LDL cholesterol	human, serum	20 mg once daily, day 1	–	serum LDL-C	99.9 mg/dL
O=C1CCP(=S)(c2ccccc2)CC1	PC-3	ELISA	–	concentration not given, at IC50	relative to: untreated	IL-6 reduction	96.8%
CC[C@H](C)[C@H](NC(=O)[C@H](C)NC(=O)[C@H](CCCCN)NC(=O)[C@H](CC(C)C)NC(=O)[C@H](C)NC(=O)[C@@H](NC(=O)[C@H](Cc1c[nH]cn1)NC(=O)[C@H](CC(C)C)NC(=O)[C@@H](NC(=O)[C@@H](NC(=O)[C@H](CCCCN)NC(=O)[C@H](C)NC(=O)[C@H](C)NC(=O)[C@H](CO)NC(=O)[C@H](CCCCN)NC(=O)[C@H](Cc1ccccc1)NC(=O)[C@@H](NC(=O)[C@H](CCCCN)NC(=O)[C@H](CC(C)C)NC(=O)[C@H](Cc1ccccc1)NC(=O)[C@H](CO)NC(=O)[C@H](CCCCN)NC(=O)[C@H](Cc1c[nH]c2ccccc12)NC(=O)[C@H](CCCCN)NC(C)=O)[C@@H](C)O)[C@@H](C)O)C(C)C)[C@@H](C)O)C(=O)N[C@@H](CO)C(=O)N[C@@H](CO)C(N)=O	Pseudomonas aeruginosa	–	IPM-R	81 strains	–	MIC50	8 µg/mL (≈ 2.73 µM)
